Assay results collected from several papers.
± gives the spread as reported.
Route: intravenous

SMILES	test	test system	conditions	tissue uptake
CCCC[C@H](NC(=O)CCCCCCCNC(=O)CN1CCN(CC(=O)O)CCN(CC(=O)O)CC1)C(=O)N[C@H]1CC(=O)NCCCC[C@@H](C(N)=O)NC(=O)[C@H](Cc2c[nH]c3ccccc23)NC(=O)[C@H](CCCNC(=N)N)NC(=O)[C@@H](Cc2ccccc2)NC(=O)[C@H](Cc2c[nH]cn2)NC1=O [copper-64 labelled]		C57 mice, heart	0.37 MBq, 24 h	0.22 ± 0.04 %ID/g
N=C(N)NCCC[C@@H]1NC(=O)[C@H](CCCCNC(=O)CC[C@H](NC(=O)CC[C@H](NC(=O)CN2CCN(CC(=O)O)CCN(CC(=O)O)CCN(CC(=O)O)CC2)C(=O)N[C@@H](CCC(=O)NCCCC[C@@H]2NC(=O)[C@@H](Cc3ccccc3)NC(=O)[C@H](CC(=O)O)NC(=O)CNC(=O)[C@H](CCCNC(=N)N)NC2=O)C(=O)NCCCC[C@@H]2NC(=O)[C@@H](Cc3ccccc3)NC(=O)[C@H](CC(=O)O)NC(=O)CNC(=O)[C@H](CCCNC(=N)N)NC2=O)C(=O)NCCCC[C@@H]2NC(=O)[C@@H](Cc3ccccc3)NC(=O)[C@H](CC(=O)O)NC(=O)CNC(=O)[C@H](CCCNC(=N)N)NC2=O)NC(=O)[C@@H](Cc2ccccc2)NC(=O)[C@H](CC(=O)O)NC(=O)CNC1=O [indium-111 labelled]		female athymic nu/nu mice, blood	72 h	0.07 ± 0.02 %ID/g
CC(C)C[C@@H](NC(=O)[C@@H](CCC(=O)O)NC(=O)[C@@H](CC(C)C)NC(=O)[C@@H](CC(C)C)NC(=O)[C@@H](CC(C)C)NC(=O)[C@H](NC(=O)[C@@H](CCC(=O)O)NC(=O)[C@H](NC(=O)[C@H]1CCCN1C(=O)[C@@H](Cc1ccccc1)NC(=O)[C@@H](CC(C)C)NC(=O)[C@@H](Cc1c[nH]c2ccccc12)NC(=O)[C@@H](CCC(=O)O)NC(=O)[C@@H](CC(C)C)NC(=O)[C@@H](Cc1ccc(O)cc1)NC(=O)[C@@H](CCCNC(=N)N)NC(=O)[C@@H](C)NC(=O)[C@@H](Cc1c[nH]c2ccccc12)NC(=O)[C@H]1CCCN1C(=O)[C@@H](CC(N)=O)NC(=O)[C@@H](CCC(N)=O)NC(=O)[C@@H](CCC(=O)O)NC(=O)[C@@H](CCC(=O)O)NC(=O)[C@@H](CS)NC(=O)[C@@H](C)NC(=S)Nc1ccc(CC2CN(CC(=O)O)CCN(CC(=O)O)CCN2CC(=O)O)cc1)[C@H](C)O)[C@H](C)O)C(=O)O (stereo partly shown) [fluorine-18 labelled]		BALB/c mice, female, 4T1 orthotopic tumour, small intestine	4 h	0.776 ± 0.196 %ID/g
CN1C(=O)[C@@H](Cc2ccc(O)cc2)NC(=O)CNC(=O)[C@H](Cc2ccc3ccccc3c2)NC(=O)[C@H](CCCNC(=N)N)NC(=O)[C@H]1CCCNC(=O)c1ccc(CNC(=O)CN2CCN(CC(=O)O)CCN(CC(=O)O)CCN(CC(=O)O)CC2)cc1 [gallium-68 labelled]		SCID mice, lymphoma xenograft, intestine	1 h	1.1 ± 0.1 %ID/g
N=C(N)NCCC[C@@H]1NC(=O)[C@H](CCCCNC(=O)CNC(=O)CNC(=O)CNC(=O)CC[C@H](NC(=O)CNC(=O)CNC(=O)CNC(=O)CN2CCN(CC(=O)O)CCN(CC(=O)O)CCN(CC(=O)O)CC2)C(=O)NCC(=O)NCC(=O)NCC(=O)NCCCC[C@@H]2NC(=O)[C@@H](Cc3ccccc3)NC(=O)[C@H](CC(=O)O)NC(=O)CNC(=O)[C@H](CCCNC(=N)N)NC2=O)NC(=O)[C@@H](Cc2ccccc2)NC(=O)[C@H](CC(=O)O)NC(=O)CNC1=O [indium-111 labelled]		female athymic nu/nu mice, blood	24 h	0.03 ± 0.01 %ID/g
CC(C)C[C@H](NC(=O)CN1CCN(CC(=O)O)CCN(CC(=O)O)CC1)C(=O)N[C@@H](CC(C)C)C(=O)N[C@@H](CC(C)C)C(=O)N[C@@H](CC(C)C)C(=O)N[C@@H](CCCNC(=N)N)C(=O)N[C@H](C(=O)N[C@@H](CCCCN)C(=O)N[C@@H](CCCNC(=N)N)C(N)=O)C(C)C [copper-64 labelled]		male CD1 mice, bone	15 min, with: 0.1 µmol unlabelled peptide	1.9 ± 0.2 %ID/g
CCCC[C@H](NC(=O)COCCOCCNC(=O)CN1CCN(CC(=O)O)CCN(CC(=O)O)CC1)C(=O)N[C@H]1CC(=O)NCCCC[C@@H](C(N)=O)NC(=O)[C@H](Cc2c[nH]c3ccccc23)NC(=O)[C@H](CCCNC(=N)N)NC(=O)[C@@H](Cc2ccccc2)NC(=O)[C@H](Cc2c[nH]cn2)NC1=O [copper-64 labelled]		C57 mice, spleen	0.37 MBq, 4 h	0.41 ± 0.25 %ID/g
CCCC[C@H](NC(=O)CNC(=O)CNC(=O)CN1CCN(CC(=O)O)CCN(CC(=O)O)CC1)C(=O)N[C@H]1CC(=O)NCCCC[C@@H](C(N)=O)NC(=O)[C@H](Cc2c[nH]c3ccccc23)NC(=O)[C@H](CCCNC(=N)N)NC(=O)[C@@H](Cc2ccccc2)NC(=O)[C@H](Cc2c[nH]cn2)NC1=O [technetium-99m labelled]		C57 mice, whole blood	0.037 MBq, 24 h	0.03 ± 0.05 %ID/g
Cc1cc(-c2ccc(NC(=O)[C@H](CCCCNC(=O)CCOCCOCCC(=O)N[C@H](Cc3ccccc3)C(=O)N[C@H]3CSSC[C@@H](C(=O)N[C@H](C(=O)O)[C@@H](C)O)NC(=O)[C@H]([C@@H](C)O)NC(=O)[C@H](CCCCN)NC(=O)[C@@H](Cc4c[nH]c5ccccc45)NC(=O)[C@H](Cc4ccc(O)cc4)NC3=O)NC(=O)CN3CCN(CC(=O)O)CCN(CC(=O)O)CCN(CC(=O)O)CC3)c(C)c2)ccc1N=Nc1ccc2c(S(=O)(=O)O)cc(S(=O)(=O)O)c(N)c2c1O [lutetium-177 labelled]		BALB/c nude mice, male, AR-42J tumour, kidneys	1.48 MBq	12.8 ± 5.25 %ID/g
N=C(N)NCCC[C@@H]1NC(=O)[C@H](CCCCNC(=O)CNC(=O)CNC(=O)CNC(=O)CC[C@H](NC(=O)CNC(=O)CNC(=O)CNC(=O)CC[C@H](NC(=O)CN2CCN(CC(=O)O)CCN(CC(=O)O)CCN(CC(=O)O)CC2)C(=O)NCC(=O)NCC(=O)NCC(=O)N[C@@H](CCC(=O)NCC(=O)NCC(=O)NCC(=O)NCCCC[C@@H]2NC(=O)[C@@H](Cc3ccccc3)NC(=O)[C@H](CC(=O)O)NC(=O)CNC(=O)[C@H](CCCNC(=N)N)NC2=O)C(=O)NCC(=O)NCC(=O)NCC(=O)NCCCC[C@@H]2NC(=O)[C@@H](Cc3ccccc3)NC(=O)[C@H](CC(=O)O)NC(=O)CNC(=O)[C@H](CCCNC(=N)N)NC2=O)C(=O)NCC(=O)NCC(=O)NCC(=O)NCCCC[C@@H]2NC(=O)[C@@H](Cc3ccccc3)NC(=O)[C@H](CC(=O)O)NC(=O)CNC(=O)[C@H](CCCNC(=N)N)NC2=O)NC(=O)[C@@H](Cc2ccccc2)NC(=O)[C@H](CC(=O)O)NC(=O)CNC1=O [indium-111 labelled]		female athymic nu/nu mice, eyes	72 h	0.53 ± 0.12 %ID/g
CC(C)C[C@@H](NC(=O)[C@@H](CCC(=O)O)NC(=O)[C@@H](CC(C)C)NC(=O)[C@@H](CC(C)C)NC(=O)[C@@H](CC(C)C)NC(=O)[C@H](NC(=O)[C@@H](CCC(=O)O)NC(=O)[C@H](NC(=O)[C@H]1CCCN1C(=O)[C@@H](Cc1ccccc1)NC(=O)[C@@H](CC(C)C)NC(=O)[C@@H](Cc1c[nH]c2ccccc12)NC(=O)[C@@H](CCC(=O)O)NC(=O)[C@@H](CC(C)C)NC(=O)[C@@H](Cc1ccc(O)cc1)NC(=O)[C@@H](CCCNC(=N)N)NC(=O)[C@@H](C)NC(=O)[C@@H](Cc1c[nH]c2ccccc12)NC(=O)[C@H]1CCCN1C(=O)[C@@H](CC(N)=O)NC(=O)[C@@H](CCC(N)=O)NC(=O)[C@@H](CCC(=O)O)NC(=O)[C@@H](CCC(=O)O)NC(=O)[C@@H](CSC1CC(=O)N(CCNC(=O)CN2CCN(CC(=O)O)CCN(CC(=O)O)CC2)C1=O)NC(=O)[C@@H](C)N)[C@H](C)O)[C@H](C)O)C(=O)O (stereo partly shown) [copper-64 labelled]		BALB/c mice, female, 4T1 orthotopic tumour, small intestine	4 h	6.37 ± 0.11 %ID/g
N=C(N)NCCC[C@@H]1NC(=O)[C@H](CCCCNC(=O)CN2CCN(CC(=O)O)CCN(CC(=O)O)CCN(CC(=O)O)CC2)NC(=O)[C@@H](Cc2ccc(O)cc2)NC(=O)[C@H](CC(=O)O)NC(=O)CNC1=O [copper-64 labelled]	64Cu microPET	female nude mice, U-87 MG xenograft, liver	1 h	4.19 ± 0.78 %ID/g
CSCC[C@H](NC(=O)[C@H](CC(C)C)NC(=O)[C@H](Cc1c[nH]cn1)NC(=O)CNC(=O)[C@@H](NC(=O)[C@H](C)NC(=O)[C@H](Cc1c[nH]c2ccccc12)NC(=O)[C@H](CCC(N)=O)NC(=O)CCOCCOCCOCCOCCNC(=O)CN1CCN(CC(=O)O)CCN(CC(=O)O)CCN(CC(=O)O)CC1)C(C)C)C(N)=O [indium-111 labelled]		male Swiss nu/nu mice, PC-3 xenograft, blood	10 pmol, 1 h post injection, 111In or 99mTc labelled	0.3 ± 0.1 %ID/g

Repeated from above:
SMILES	test	test system	conditions	tissue uptake
N=C(N)NCCC[C@@H]1NC(=O)[C@H](CCCCNC(=O)CC[C@H](NC(=O)CC[C@H](NC(=O)CN2CCN(CC(=O)O)CCN(CC(=O)O)CCN(CC(=O)O)CC2)C(=O)N[C@@H](CCC(=O)NCCCC[C@@H]2NC(=O)[C@@H](Cc3ccccc3)NC(=O)[C@H](CC(=O)O)NC(=O)CNC(=O)[C@H](CCCNC(=N)N)NC2=O)C(=O)NCCCC[C@@H]2NC(=O)[C@@H](Cc3ccccc3)NC(=O)[C@H](CC(=O)O)NC(=O)CNC(=O)[C@H](CCCNC(=N)N)NC2=O)C(=O)NCCCC[C@@H]2NC(=O)[C@@H](Cc3ccccc3)NC(=O)[C@H](CC(=O)O)NC(=O)CNC(=O)[C@H](CCCNC(=N)N)NC2=O)NC(=O)[C@@H](Cc2ccccc2)NC(=O)[C@H](CC(=O)O)NC(=O)CNC1=O [indium-111 labelled]		female athymic nu/nu mice, blood	72 h	0.07 ± 0.02 %ID/g
